Measurements from different studies.
Numbered parts are unrelated; each lists some results of a single study. Several values in a cell are separate wells, animals, samples, runs or records.
Sequence of UniProt P33261 (whole entry, looked up): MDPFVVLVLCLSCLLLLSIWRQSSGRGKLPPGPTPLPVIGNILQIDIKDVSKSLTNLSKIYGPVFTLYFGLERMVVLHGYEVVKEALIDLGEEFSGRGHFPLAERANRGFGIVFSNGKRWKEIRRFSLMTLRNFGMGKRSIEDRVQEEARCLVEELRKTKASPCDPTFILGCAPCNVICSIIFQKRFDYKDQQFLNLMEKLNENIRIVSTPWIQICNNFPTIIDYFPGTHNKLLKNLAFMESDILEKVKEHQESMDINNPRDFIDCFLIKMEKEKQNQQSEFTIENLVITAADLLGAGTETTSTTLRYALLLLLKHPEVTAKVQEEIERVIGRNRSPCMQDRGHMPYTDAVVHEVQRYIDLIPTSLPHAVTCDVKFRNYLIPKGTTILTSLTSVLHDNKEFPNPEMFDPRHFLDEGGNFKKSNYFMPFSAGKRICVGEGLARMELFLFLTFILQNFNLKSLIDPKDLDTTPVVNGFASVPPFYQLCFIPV
Sequence of UniProt P10632 (whole entry, looked up): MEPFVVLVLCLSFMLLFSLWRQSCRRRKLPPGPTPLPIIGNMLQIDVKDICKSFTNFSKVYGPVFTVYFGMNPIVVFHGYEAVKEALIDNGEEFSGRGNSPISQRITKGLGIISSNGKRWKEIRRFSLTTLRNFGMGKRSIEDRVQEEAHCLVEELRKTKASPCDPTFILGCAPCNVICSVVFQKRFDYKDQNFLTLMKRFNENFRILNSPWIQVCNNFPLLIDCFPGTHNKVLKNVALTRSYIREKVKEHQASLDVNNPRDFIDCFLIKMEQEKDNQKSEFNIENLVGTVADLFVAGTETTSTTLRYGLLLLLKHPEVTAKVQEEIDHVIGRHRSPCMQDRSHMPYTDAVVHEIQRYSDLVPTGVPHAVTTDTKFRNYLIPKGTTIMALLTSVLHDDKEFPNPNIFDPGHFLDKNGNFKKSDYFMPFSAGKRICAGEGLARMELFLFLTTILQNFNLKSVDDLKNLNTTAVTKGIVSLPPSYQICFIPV

Sample 1
SMILES: Cc1ncsc1-c1ccc(C(CO)NC(=O)C2CC(O)CN2C(=O)C(C(C)C)n2cc(-c3ccc(COc4c(-c5c(C)c(F)cc6[nH]ncc56)c(C5CC5)cc5c(N6CC7CC6CN7)nc(OC6CCOCC6)nc45)cc3)nn2)cc1 (stereo not shown)
test system	setting	tumour volume
mouse, lung LXFA sample A PDX	30 mg/kg twice weekly, day 19	47.8 mm3 and 141 mm3 and 68.7 mm3 and 44.6 mm3 and 119 mm3 and 71.3 mm3 and 80.9 mm3 and 7.8 mm3
mouse, lung LXFA sample B PDX	10 mg/kg twice weekly, day 11	43.2 mm3 and 273 mm3 and 79.4 mm3 and 117 mm3 and 314 mm3 and 180 mm3 and 202 mm3 and 88.2 mm3
GP5d xenograft, mouse	30 mg/kg twice weekly, day 14	225 mm3 and 136 mm3 and 119 mm3 and 172 mm3 and 228 mm3
mouse, GP2d xenograft	30 mg/kg twice weekly, day 0	188 mm3 and 200 mm3 and 187 mm3 and 192 mm3 and 245 mm3
GP5d xenograft, mouse	30 mg/kg once weekly, day 0	187 mm3 and 173 mm3 and 189 mm3 and 154 mm3 and 163 mm3
mouse, PK-59 xenograft	3 mg/kg, day 21	563 mm3 and 529 mm3 and 570 mm3 and 413 mm3 and 405 mm3
PK-1 xenograft, mouse	30 mg/kg once weekly, day 0	237 mm3 and 165 mm3 and 143 mm3 and 150 mm3
HPAC xenograft, mouse	30 mg/kg once weekly, day 4	189 mm3 and 154 mm3 and 158 mm3 and 166 mm3 and 226 mm3

Sample 2
SMILES: NC/C(=C\F)COc1cccc(Cn2c(=S)[nH]c(=O)c3[nH]cnc32)c1
Mode: inhibitor
CYP3A4: Cytochrome P450 3A4 (CYP3A4, Homo sapiens, UniProt P08684)
target	test	setting	remaining activity
CYP3A4	enzyme activity	30 µM, CYP3A4-MID substrate	20.9%
CYP3A4	enzyme activity	3.33 µM	74.8%
Cytochrome P450 2C8 (CYP2C8, Homo sapiens, UniProt P10632)		3.33 µM	82.1% and 92.7%
Cytochrome P450 2C19 (CYP2C19, Homo sapiens, UniProt P33261)		30 µM	41% and 56.6%

Sample 3
Cell line: MDA-MB-231
Effect on: cell viability
Technique: CellCounting-Lite
Tested at: 8.23 nM
Temperature: 37 °C
Reading: higher = more viable cells
SMILES	luminescence signal
CCn1cnc2c(NCc3nc4cc(Cl)c(Cl)cc4[nH]3)nc(N3CCN(C(C)=O)CC3)nc21	399000 a.u. and 388000 a.u. and 437000 a.u.
CC(=O)N1CCN(c2nc(NCc3nc4cc(Cl)c(Cl)cc4[nH]3)c3ncn(C(C)C)c3n2)CC1	487000 a.u. and 509000 a.u. and 522000 a.u.
CCCCOc1nc(NCc2nc3cc(Cl)c(Cl)cc3[nH]2)c2ncn(CC)c2n1	627000 a.u. and 710000 a.u. and 490000 a.u.
CCn1cnc2c(NCc3nc4cc(Cl)c(Cl)cc4[nH]3)nc(N3CCC(NC(C)=O)CC3)nc21	468000 a.u. and 479000 a.u. and 532000 a.u.
CCn1cnc2c(NCc3nc4cc(F)c(F)cc4[nH]3)nc(N3CCn4ncnc4C3)nc21	491000 a.u. and 517000 a.u. and 489000 a.u.
CCn1cnc2c(NCc3nc4cc(Cl)c(Cl)cc4[nH]3)nc(N3CCn4ncnc4C3)nc21	473000 a.u. and 371000 a.u. and 490000 a.u.
Cn1cc(-n2cnc3c(NCc4nc5cc(Cl)c(Cl)cc5[nH]4)nc(N4CCNCC4)nc32)cn1	463000 a.u. and 444000 a.u. and 466000 a.u.
CC(=O)N1CCN(c2nc(NCc3nc4cc(Cl)c(Cl)cc4[nH]3)c3ncn(-c4cnn(C)c4)c3n2)CC1	589000 a.u. and 501000 a.u. and 503000 a.u.
CCn1cnc2c(NCc3nc4cc(Cl)c(Cl)cc4[nH]3)nc(N3CCN(C(=O)c4cccnc4)CC3)nc21	279000 a.u. and 288000 a.u. and 326000 a.u.

Sample 4
SMILES: C[C@@H]1CN(c2ccc(-c3cc(C(=O)NCCOCCOCCOCCOCCNC(=O)/C=C/c4[nH]cc(C(=O)N[C@@H](CC(N)=O)c5ccc(F)c(Cl)c5)c4-c4ccc(Cl)cc4F)ccc3F)cc2NC(=O)c2c[nH]c(=O)cc2C(F)(F)F)C[C@H](C)N1C
Effect on: thermal unfolding
Technique: differential scanning fluorimetry
Tested at: 5.5 µM
Reading: higher = more unfolded
WDR5: WD repeat-containing protein 5 (WDR5, Homo sapiens, UniProt P61964)
DCAF1: DDB1- and CUL4-associated factor 1 (DCAF1, Homo sapiens, UniProt Q9Y4B6)
Sequence of UniProt Q9Y4B6 (whole entry, looked up): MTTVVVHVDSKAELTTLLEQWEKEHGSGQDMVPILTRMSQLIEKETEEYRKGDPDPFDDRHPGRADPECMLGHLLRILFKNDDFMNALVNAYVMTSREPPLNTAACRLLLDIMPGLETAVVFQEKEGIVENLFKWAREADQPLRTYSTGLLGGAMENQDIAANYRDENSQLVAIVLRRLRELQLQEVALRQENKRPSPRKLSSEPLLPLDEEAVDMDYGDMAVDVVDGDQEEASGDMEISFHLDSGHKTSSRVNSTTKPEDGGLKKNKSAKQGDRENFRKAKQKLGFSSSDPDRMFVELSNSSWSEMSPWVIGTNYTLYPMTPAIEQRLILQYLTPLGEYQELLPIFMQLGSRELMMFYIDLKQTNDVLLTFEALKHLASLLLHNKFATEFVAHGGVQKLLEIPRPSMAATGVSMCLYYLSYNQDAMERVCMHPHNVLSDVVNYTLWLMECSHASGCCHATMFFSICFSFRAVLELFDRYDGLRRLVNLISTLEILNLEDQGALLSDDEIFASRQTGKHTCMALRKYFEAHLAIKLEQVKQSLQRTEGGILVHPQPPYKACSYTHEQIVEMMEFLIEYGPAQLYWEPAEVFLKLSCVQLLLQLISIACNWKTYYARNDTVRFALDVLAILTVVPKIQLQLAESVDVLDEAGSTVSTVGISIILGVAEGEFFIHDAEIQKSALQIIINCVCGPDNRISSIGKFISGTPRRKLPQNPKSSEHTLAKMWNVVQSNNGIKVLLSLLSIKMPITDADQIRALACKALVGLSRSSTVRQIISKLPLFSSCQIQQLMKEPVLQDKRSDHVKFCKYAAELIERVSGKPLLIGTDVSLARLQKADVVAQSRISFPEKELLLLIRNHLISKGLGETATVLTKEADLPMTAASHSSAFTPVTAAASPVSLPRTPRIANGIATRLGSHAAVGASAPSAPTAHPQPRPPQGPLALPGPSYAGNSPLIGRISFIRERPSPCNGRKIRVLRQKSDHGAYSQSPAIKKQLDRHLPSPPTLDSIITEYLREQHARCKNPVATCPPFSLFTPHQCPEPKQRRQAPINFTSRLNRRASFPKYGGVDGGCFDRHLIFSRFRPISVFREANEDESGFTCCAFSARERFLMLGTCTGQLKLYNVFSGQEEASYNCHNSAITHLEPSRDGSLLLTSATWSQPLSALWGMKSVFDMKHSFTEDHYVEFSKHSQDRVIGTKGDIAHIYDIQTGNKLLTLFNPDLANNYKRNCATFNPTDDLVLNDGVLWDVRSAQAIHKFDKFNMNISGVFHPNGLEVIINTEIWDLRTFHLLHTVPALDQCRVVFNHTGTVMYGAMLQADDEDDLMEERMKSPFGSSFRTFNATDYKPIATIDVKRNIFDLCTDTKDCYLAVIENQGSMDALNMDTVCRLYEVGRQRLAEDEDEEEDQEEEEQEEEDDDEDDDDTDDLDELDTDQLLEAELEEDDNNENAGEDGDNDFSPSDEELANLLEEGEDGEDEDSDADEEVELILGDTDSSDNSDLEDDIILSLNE
target	setting	SYPRO Orange fluorescence
WDR5	54.01 °C	16800 a.u.
WDR5	77.01 °C	31200 a.u.
WDR5	89.21 °C	52000 a.u.
DCAF1	35.4 °C	10300 a.u.
WDR5	56.21 °C	16800 a.u.
DCAF1	54.01 °C	19500 a.u.
WDR5	44.2 °C	15200 a.u.
DCAF1	26.6 °C	8890 a.u.
DCAF1	67.01 °C	58900 a.u.
WDR5	70.41 °C	16700 a.u.
WDR5	67.41 °C	14100 a.u.

Sample 5
Structure (SMILES): CCN1/C(=C/C=C2\CCCC(/C=C/C3=[N+](CC)c4ccccc4C3(C)C)=C2NCCCCCCCCN2CCC(Nc3nc4ccccc4n3Cc3ccc(F)cc3)CC2)C(C)(C)c2ccccc21
Cell line: U-87 MG
Tested at: concentration not given
Reference: DMSO
test	log2 fold change
measured: FBXO42 mRNA	1.06
measured: KIF27 mRNA	1.2
measured: KLHL24 mRNA	1.7
measured: CORO6 mRNA	-1.42
measured: HROB mRNA	-1.11
measured: DHRS9 mRNA	-4.28
measured: ARHGAP31 mRNA	-0.974
measured: DENND2B mRNA	-1.74
measured: LIN37 mRNA	0.907
measured: C1RL mRNA	-1.07
measured: EHD2 mRNA	-0.956
measured: TNFSF14 mRNA	4.69

Sample 6
Compound: CNc1ncc2cc(-c3cc(OC)cc(OC)c3Cl)c(=O)n(CCc3ccc(NC(=O)C(C#N)=CC(C)(C)N4CCOCC4)cc3)c2n1
Effect on: kinase activity
IRAK4: Interleukin-1 receptor-associated kinase 4 (IRAK4, Homo sapiens, UniProt Q9NWZ3)
Sequence of UniProt Q9NWZ3 (whole entry, looked up): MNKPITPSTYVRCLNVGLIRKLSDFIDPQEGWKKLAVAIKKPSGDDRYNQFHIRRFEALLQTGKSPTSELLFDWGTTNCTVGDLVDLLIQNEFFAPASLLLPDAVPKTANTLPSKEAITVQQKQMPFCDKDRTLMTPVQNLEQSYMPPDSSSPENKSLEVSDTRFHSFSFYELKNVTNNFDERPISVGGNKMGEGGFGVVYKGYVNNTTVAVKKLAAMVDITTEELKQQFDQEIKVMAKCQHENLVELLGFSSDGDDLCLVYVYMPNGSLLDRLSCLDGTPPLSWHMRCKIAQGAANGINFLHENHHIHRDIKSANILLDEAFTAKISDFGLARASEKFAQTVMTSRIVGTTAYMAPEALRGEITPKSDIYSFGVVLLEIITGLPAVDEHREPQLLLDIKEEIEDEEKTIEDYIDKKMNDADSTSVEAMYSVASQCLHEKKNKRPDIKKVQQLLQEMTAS
target	setting	inhibition
Serine/threonine-protein kinase Nek2 (NEK2, Homo sapiens, UniProt P51955)	1 µM	-9%
Mitogen-activated protein kinase 8 (MAPK8, Homo sapiens, UniProt P45983)	0.1 µM	8%
Protein kinase C beta type, isoform beta-I (PRKCB, Homo sapiens, UniProt P05771)	1 µM	3%
Aurora kinase A (AURKA, Homo sapiens, UniProt O14965)	1 µM	2%
Ephrin type-A receptor 2 (EPHA2, Homo sapiens, UniProt P29317)	1 µM	4%
Serine/threonine-protein kinase 26 (STK26, Homo sapiens, UniProt Q9P289)	1 µM	0%
IRAK4	1 µM	0%
Protein kinase C alpha type (PRKCA, Homo sapiens, UniProt P17252)	1 µM	-6%
Serine/threonine-protein kinase PAK 6 (PAK6, Homo sapiens, UniProt Q9NQU5)	1 µM	-2%
IRAK4	0.1 µM	-1%
Ribosomal protein S6 kinase alpha-2 (RPS6KA2, Homo sapiens, UniProt Q15349)	0.1 µM	-3%

Further values, each from its own experiment
E3 ubiquitin-protein ligase NEDD4 HECT domain: E3 ubiquitin-protein ligase NEDD4, HECT domain (Homo sapiens, UniProt P46934)
Sequence of UniProt P46934 (whole entry, looked up): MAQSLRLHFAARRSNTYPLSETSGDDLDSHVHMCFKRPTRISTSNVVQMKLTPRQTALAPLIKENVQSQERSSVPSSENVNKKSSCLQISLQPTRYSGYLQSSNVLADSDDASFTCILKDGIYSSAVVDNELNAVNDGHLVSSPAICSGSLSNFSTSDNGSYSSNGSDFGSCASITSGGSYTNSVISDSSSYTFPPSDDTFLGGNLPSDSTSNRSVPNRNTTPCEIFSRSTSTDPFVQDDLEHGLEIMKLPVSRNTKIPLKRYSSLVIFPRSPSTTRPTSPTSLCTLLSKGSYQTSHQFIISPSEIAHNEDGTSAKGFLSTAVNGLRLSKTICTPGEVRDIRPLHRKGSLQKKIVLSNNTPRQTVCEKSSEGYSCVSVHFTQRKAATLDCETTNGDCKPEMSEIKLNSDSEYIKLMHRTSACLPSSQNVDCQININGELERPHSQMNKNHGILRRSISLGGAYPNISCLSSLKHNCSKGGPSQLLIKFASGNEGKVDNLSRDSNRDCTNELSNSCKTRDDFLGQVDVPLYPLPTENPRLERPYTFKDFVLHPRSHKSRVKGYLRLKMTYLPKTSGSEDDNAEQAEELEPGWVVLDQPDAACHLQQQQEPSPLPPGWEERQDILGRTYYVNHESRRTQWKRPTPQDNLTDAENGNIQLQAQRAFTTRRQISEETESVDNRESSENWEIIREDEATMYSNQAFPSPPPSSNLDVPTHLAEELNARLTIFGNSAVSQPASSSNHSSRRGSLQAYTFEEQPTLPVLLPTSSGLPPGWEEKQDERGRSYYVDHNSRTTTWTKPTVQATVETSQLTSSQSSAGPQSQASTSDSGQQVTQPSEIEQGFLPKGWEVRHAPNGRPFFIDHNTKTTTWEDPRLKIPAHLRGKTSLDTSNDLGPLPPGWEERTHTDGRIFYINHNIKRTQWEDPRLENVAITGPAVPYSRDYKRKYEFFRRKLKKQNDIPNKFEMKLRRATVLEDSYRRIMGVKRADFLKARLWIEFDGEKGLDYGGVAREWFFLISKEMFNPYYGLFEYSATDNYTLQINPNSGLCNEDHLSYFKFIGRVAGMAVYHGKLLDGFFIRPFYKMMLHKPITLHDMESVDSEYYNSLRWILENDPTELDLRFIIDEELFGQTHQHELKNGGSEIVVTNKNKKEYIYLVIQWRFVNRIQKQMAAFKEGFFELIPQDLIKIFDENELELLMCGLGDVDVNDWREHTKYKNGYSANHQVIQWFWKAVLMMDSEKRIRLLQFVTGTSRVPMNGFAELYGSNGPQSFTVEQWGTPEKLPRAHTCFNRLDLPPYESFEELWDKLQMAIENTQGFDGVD
PKMYT1: Membrane-associated tyrosine- and threonine-specific cdc2-inhibitory kinase (PKMYT1, Homo sapiens, UniProt Q99640)
Sequence of UniProt Q99640 (whole entry, looked up): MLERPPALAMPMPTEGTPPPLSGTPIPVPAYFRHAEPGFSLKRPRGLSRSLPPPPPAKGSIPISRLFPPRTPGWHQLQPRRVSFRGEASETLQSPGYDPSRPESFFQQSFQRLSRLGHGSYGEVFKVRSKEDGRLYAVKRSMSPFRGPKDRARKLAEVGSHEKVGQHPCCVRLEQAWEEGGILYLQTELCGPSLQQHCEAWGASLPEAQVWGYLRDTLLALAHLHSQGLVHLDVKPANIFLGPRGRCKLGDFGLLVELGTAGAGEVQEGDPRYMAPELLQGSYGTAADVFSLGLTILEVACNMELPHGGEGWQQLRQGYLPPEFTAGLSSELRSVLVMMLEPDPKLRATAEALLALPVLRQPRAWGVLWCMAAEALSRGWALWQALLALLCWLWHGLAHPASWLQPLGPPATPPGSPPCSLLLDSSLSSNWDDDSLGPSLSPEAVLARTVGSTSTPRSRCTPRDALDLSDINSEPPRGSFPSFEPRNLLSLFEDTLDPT
Compound	tested on	test	test system	setting	how to read	quantity	result
Cc1ccc(O)c(C)c1-c1cnc2[nH]c(-c3cnc(N4CCC(CN5CCN(c6cc7c(cc6F)c(N6CCC(=O)NC6=O)nn7C)CC5)CC4)nc3)cc2c1C#N	HCC1569	CDK1 Thr14 phosphorylation, in-cell western		37.04 nM	lower = stronger inhibition	phospho-CDK1 (Thr14) level	24.6 a.u. and 42.3 a.u.
CCONC(=O)/C=C/CNCCCCN1c2ccccc2CCc2ccc(Cl)cc21.O=C(O)/C=C\C(=O)O	E3 ubiquitin-protein ligase NEDD4 HECT domain	enzyme activity, inhibitor, Ub-TR-FRET	HECT domain	100 µM	higher = more chain formation	ubiquitin chain formation AUC	6580 a.u. and 7270 a.u. and 7370 a.u. and 7360 a.u. and 7060 a.u. and 6930 a.u.
Cc1ccc(O)c(C)c1-c1cnc2[nH]c(-c3cnc(N4CCC5(CC4)CC(N4CCN(c6cc7c(cc6F)c(N6CCC(=O)NC6=O)nn7C)CC4)CO5)nc3)cc2c1C#N (racemic)	PKMYT1	binding, HTRF		4.12 nM		inhibition	44.2% and 43%
O=C(Nc1ccccc1)Nc1cccc(Oc2ccc3nccn3n2)c1	Discoidin domain-containing receptor 2 (DDR2, Homo sapiens, UniProt Q16832)	cell-free assay		1 µM		inhibition	1%
Cc1ccc(O)c(C)c1-c1cnc2[nH]c(-c3cnc(N4CCC(CCN5CCN(c6ccc(N7CCC(=O)NC7=O)cc6F)CC5)CC4)nc3)cc2c1C#N	PKMYT1	binding, HTRF		4.12 nM		inhibition	67.3% and 66.9%
CNC(=O)/C=C/CNCCCCN1c2ccccc2CCc2ccc(Cl)cc21.Cl	E3 ubiquitin-protein ligase NEDD4 HECT domain	enzyme activity, inhibitor, Ub-TR-FRET	HECT domain	0.1372 µM	higher = more chain formation	ubiquitin chain formation AUC	68200 a.u. and 70000 a.u. and 85900 a.u. and 71300 a.u. and 87400 a.u.
Cc1nc(C)c(C=[N+]([O-])C(C)(C)C)nc1C		footprint test	MPTP-induced Parkinson's disease mouse model	90 mg/kg		stride length	7.89 cm and 6.3 cm and 7.09 cm and 5.87 cm and 5.67 cm and 6.29 cm and 5.95 cm
CN(C)C/C=C/C(=O)NCCCN1c2ccccc2CCc2ccc(Cl)cc21	E3 ubiquitin-protein ligase NEDD4 HECT domain	enzyme activity, inhibitor, Ub-TR-FRET	HECT domain	100 µM	higher = more chain formation	ubiquitin chain formation AUC	84500 a.u. and 75800 a.u. and 76300 a.u.
Cc1ccnc(C)c1-c1cnc2[nH]c(-c3ccc(N4CCN(C)CC4)nc3C)nc2c1	PKMYT1	binding, HTRF		13.72 nM		inhibition	-13.5% and -18.4%
